Experimental data gathered from unrelated publications.
Numbered parts are unrelated; each lists some results of a single study. Changes are numbered by the printed parent chain.

Study 1
Target: RNA binding protein fox-1 homolog 2, RRM domain, GST-SBP tag (RBFOX2, Homo sapiens, UniProt O43251-10, residues 100-194)
Technique: RNA Bind-n-Seq
Form: RNA
Medium: in vitro
Concentration: 365 nM
Notes: natural RNA segment, single round, ends assumed
Relative to: no-protein control
Direction: higher = stronger binding
Target sequence (chain): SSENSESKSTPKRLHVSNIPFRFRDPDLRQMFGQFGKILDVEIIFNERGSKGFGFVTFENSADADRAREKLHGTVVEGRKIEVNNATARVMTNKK
Sequence | RBNS enrichment (R)
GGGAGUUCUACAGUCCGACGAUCUUAAGAUUAAAAGCUAGAAAUCAGAUGGUCUGCUUCUGCUAUGUCUGUAGACCGAUUGGAUGUAUGUGGAGGCUGGCCAGAUGGCAACUGAUGACUUGUGUGCAAACAAGUGGAAUUCUCGGGUGCCAA | 0.481
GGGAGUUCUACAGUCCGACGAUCAUGAGUGUGUGUUCUUCCCCAAGGUCCCCCCACAGCUCCAGGACACCGCUGUCCUGGCAUUUGUGGCCACUCACUUUGUAGGAAACUCAUCUCCUUCCUGAGGAGCCGGGUGGAAUUCUCGGGUGCCAA | 0.206
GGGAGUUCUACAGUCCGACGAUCGCCUCUCCUGAAGUAUCACUCUACUAAAUGGUUAACAAACCAAUACUUUUAAAAUUGUACCCAAACCAGGAAAUUCACAGAUGUACUGCAAUCAAACCUAAGCUGUUGCCUGGAAUUCUCGGGUGCCAA | 0.622
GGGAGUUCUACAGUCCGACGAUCAUUUGCUCACAUUAACAAAUUAAAGUGCCUGAAGCAUAAUUCAUUCUUUACCUGUAUACUAAAAACCCUGUUGUAUUGAUUUUUUUAUAAUAAGCCUUUUUACCUCUGUGUGGAAUUCUCGGGUGCCAA | 0.725
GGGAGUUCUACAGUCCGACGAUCACGUUCUCAGUUGAUAUCUGAGUAUUGGGUGCAUUUGGUGGCUUAAAAGCAAAGCUUCCUAAAAAGAUUUUUCUUGGCAGCUCCAGGUCUAUACAUUUAGGUAAUGAAUGUGGAAUUCUCGGGUGCCAA | 0.339
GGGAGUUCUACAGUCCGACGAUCGAAAUGCUUUUAACUCAAACAGCAACAUCUUAGCUAUUUGUUAGUUCUCUUUUGUUGUCUUAUCAAAGUUUAAUGGAGACACUUUCAUAAUUGUUGUUGUGUGUACAUUUUGGAAUUCUCGGGUGCCAA | 0.463
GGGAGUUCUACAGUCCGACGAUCGGUCUCCCUGUAGGAAAUGUGAAAAAAAGCACAAUAGAACCAGGCUAGGGGCUUUGUUCCUGCUUUUUGUUUUGUUUGGUUUUACUAUCAGAUGGAUGGAUUUGUGUUUGUGGAAUUCUCGGGUGCCAA | 0.451
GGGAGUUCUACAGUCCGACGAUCAUACCGGAGUCUACCCUGCUUCACCAUCUCCCACCCUUAUACUGUCUCUGAUGAGUUAUGCUAAGUUCUAGUCUGAUUAUCCUCCUGGUUCCAUUUAAGGCCCUCAGAGAUGGAAUUCUCGGGUGCCAA | 0.483
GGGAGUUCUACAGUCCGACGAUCGUGUCCUCUCUAUGUUUCAAAUAGCAAAUCUUGUUCAUUAAAAUACUUAUUAAAAGAUUUGAAUACCAAAUUUGGUGAUUUUUGUGAUUCCUGUGGCUACUUGGAUGUGGUGGAAUUCUCGGGUGCCAA | 0.563
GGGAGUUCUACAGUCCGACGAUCUCCUCGCGGGAGGGGACUGCGCUGCUAUAGCUCUUGCUGCCUCUCUUGAAUAGCUCUAACUCCAAACCUCUGUCCACACCUCCAGAGCACCAAGUCCAGAUUUGUGUGUAUGGAAUUCUCGGGUGCCAA | 0.506
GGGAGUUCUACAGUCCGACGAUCGCUUGGGCCGCUUAGGAACAAGAACCGGAGAGAAGUGAUUGGAAAUGAACUCUUGCCCUGGAAUAAUCUUGACAAUUAAAACUGAUAUGUUUACUUUUUUUGUAUUGAUCUGGAAUUCUCGGGUGCCAA | 0.295
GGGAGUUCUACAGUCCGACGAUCCCCACCUGCACCUAGCAAGGAACAGGUGUUUGAUGUAUUUUGCUCAUGACUGCAGUAUGCAUGUAUUUUUUUCCUUCUCUGUGUUUUCUAAACUUACACUAAAGGAUUCAUGGAAUUCUCGGGUGCCAA | 12.1

Study 2
Target: CRIPT, C-terminal peptide
Technique: DHFR complementation, deep sequencing
Medium: yeast
Notes: single substitutions, model-inferred values
Relative to: wild type
Direction: higher = weaker binding
Starting sequence: ERBIN, PDZ domain 1 (human); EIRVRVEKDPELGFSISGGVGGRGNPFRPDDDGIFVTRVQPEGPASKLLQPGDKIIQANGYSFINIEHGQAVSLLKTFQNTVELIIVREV; partner TKNYKQTSV
Substitution | binding free energy change
E67I | 0.351 kcal/mol
G60Y | 0.245 kcal/mol
Q57H | 0.0976 kcal/mol
P29N | 0.0937 kcal/mol
Q40K | -0.0856 kcal/mol
D30M | 0.258 kcal/mol
G18A | 1.33 kcal/mol
S73C | 0.012 kcal/mol
T81I | 0.0976 kcal/mol
N59C | 0.173 kcal/mol
E42R | 0.0361 kcal/mol
I85S | 0.023 kcal/mol
N59K | 0.385 kcal/mol
I55H | 1.14 kcal/mol
P41F | 0.381 kcal/mol
T37K | 1.41 kcal/mol
G13H | 1.5 kcal/mol

Study 3
Target: FOSL2, bZIP domain (human)
Technique: DHFR protein complementation
Medium: yeast
Notes: single substitutions, most at no-binding floor
Relative to: wild-type JUN-FOS pair
Direction: higher = stronger binding
Starting sequence: JUN, bZIP domain (human); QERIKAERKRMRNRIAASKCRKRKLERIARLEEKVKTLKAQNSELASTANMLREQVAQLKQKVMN; partner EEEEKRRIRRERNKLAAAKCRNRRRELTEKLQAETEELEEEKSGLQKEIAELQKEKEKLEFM
Substitution | binding fitness [natural log]
K36L | 0.0268
S47T | 0.0481
R30A | 0.292
Q41W | -0.859
N42H | -0.485
L45N | -0.819
K39M | -0.343
S47I | 0.0924
I28P | -0.103
A57S | -0.0408
A49V | 0.0803
E54M | 0.0107
V35K | 0.0383
K39Q | -0.112
M51R | 0.0921
A29E | 0.0517
L31A | -0.049
I28C | -0.108
A46W | -0.0998
A29K | -0.0562
E54I | -0.0396

Study 4
Target: ABI1, truncated, D143A, DHFR fusion (Arabidopsis thaliana)
Technique: DHFR PCA, deep sequencing
Medium: yeast
Notes: methotrexate growth selection, single substitutions
With: (+)-ABA 710 µM
Relative to: wild-type fitted maximum
Direction: higher = stronger binding
Starting sequence: PYL1, truncated, DHFR fusion (Arabidopsis thaliana); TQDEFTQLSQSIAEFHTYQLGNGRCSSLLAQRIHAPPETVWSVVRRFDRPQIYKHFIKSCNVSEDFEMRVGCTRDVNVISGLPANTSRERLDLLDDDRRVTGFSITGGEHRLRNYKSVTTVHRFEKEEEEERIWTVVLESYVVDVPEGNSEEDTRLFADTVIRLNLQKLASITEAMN
Substitution | relative binding score
A175Y | 93.7%
R163T | 95.6%
V78L | 102%
H34P | 98%
A84K | 5.1%
G107T | 86.1%
A158C | 101%
S9G | 108%
I57W | 8.54%
T6V | 108%
V145G | 13.6%
C25R | 43.2%
K168F | 77.4%
T101L | 109%
Q167A | 103%

Study 5
Target: CCND2, cyclin fold, Cln2 fusion (human)
Technique: yeast growth competition, sequencing
Medium: yeast
Notes: strong parent motif
Relative to: not given
Direction: higher = stronger binding
Starting sequence: PKN2 docking peptide (human); VSAVRKLDFSDTM; partner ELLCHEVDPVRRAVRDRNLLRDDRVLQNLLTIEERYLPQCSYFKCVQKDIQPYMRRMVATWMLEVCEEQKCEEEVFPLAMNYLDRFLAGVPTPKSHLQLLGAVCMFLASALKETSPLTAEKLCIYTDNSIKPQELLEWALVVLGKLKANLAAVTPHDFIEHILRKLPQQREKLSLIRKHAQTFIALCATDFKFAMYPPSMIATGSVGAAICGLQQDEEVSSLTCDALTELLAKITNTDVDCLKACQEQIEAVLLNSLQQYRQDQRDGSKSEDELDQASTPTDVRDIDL
Substitution | normalised enrichment score
VSAVTKLDFSDTM [R5T] | 0.432
VSAVRKLDFSGTM [D11G] | 3.16
VSAARKLDFSDTM [V4A] | 3.26
VSAVIKLDFSDTM [R5I] | 0.922
VSAVRKLDFFDTM [S10F] | 1.75
VSAVRKLDFSATM [D11A] | 3.11
VSAVFKLDFSDTM [R5F] | 0.398
VSIVRKLDFSDTM [A3I] | 1.52
VSAVKKLDFSDTM [R5K] | 1.18
VSAVDKLDFSDTM [R5D] | 0.264
VSAVRKLDCSDTM [F9C] | 0.186
VSAVRKLDRSDTM [F9R] | 0.0512
VSAVRKLHFSDTM [D8H] | 1.54
VSAVRDLDFSDTM [K6D] | 0.167
VSAVRKLKFSDTM [D8K] | 1.18
VSAVRYLDFSDTM [K6Y] | 1.87
VSPVRKLDFSDTM [A3P] | 1.31
VSAVRKLDFSDSM [T12S] | 3.83
VSAVRNLDFSDTM [K6N] | 1.22
VSEVRKLDFSDTM [A3E] | -0.249
VSAVRKLDFDDTM [S10D] | 3.37
VSAVRKLSFSDTM [D8S] | 3.01
VSAVRKLDFSQTM [D11Q] | 3.07
VSAVRKLDKSDTM [F9K] | 0.502
VSAGRKLDFSDTM [V4G] | 0.589

Mixed results
Molecule | target | assay | test system | conditions | how to read | endpoint | result
PhoQ, residues 284 288 289 292 302 303 SASVAL | PhoP, residues 12 14 15 18 19 LHHVQ (Escherichia coli, UniProt P23836) | Sort-seq, item: YFP reporter | E. coli | PhoQ-PhoP variant library, with: 10 µM Mg2+ | relative to: high Mg2+ state, higher = stronger signaling | fold induction | 3.96

For quick reference, copied from above (study 3):
Substitution | binding fitness [natural log]
R30A | 0.292
S47I | 0.0924
S47T | 0.0481
L31A | -0.049
E54M | 0.0107
I28C | -0.108
M51R | 0.0921
Q41W | -0.859
K36L | 0.0268
A46W | -0.0998
